Measurements from different studies.
Each line is one published result; not all experiments were run side by side. Numbers after ± are the reported error.

C[C@H](CCC(=O)NCC(=O)O)[C@H]1CC[C@H]2[C@@H]3[C@H](O)C[C@@H]4C[C@H](OS(=O)(=O)O)CC[C@]4(C)[C@H]3CC[C@]12C — mean daily plasma concentration (human, plasma; control): 0.088 ± 0.0153 µM
Cc1nc(N)nc2c1C(=O)N[C@@H](c1ccc(F)cc1-c1cccc(O[11CH3])n1)C2 — tracer uptake (ex vivo biodistribution; mice, MDA-MB-231 subcutaneous xenograft, urine; 60 min post-injection, baseline, vehicle pre-treatment): 0.5 ± 0.1 %ID
CC(C)[C@H](NC(=O)[C@H](Cc1c[nH]c2ccccc12)NC(=O)[C@H](CCCNC(=N)N)NC(=O)[C@H](CCCNC(=N)N)NC(=O)[C@@H](NC(=O)[C@@H](NC(=O)[C@H](CCCNC(=N)N)NC(=O)[C@@H](NC(=O)[C@@H](NC(=O)[C@H](CCCNC(=N)N)NC(=O)[C@H](CCCNC(=N)N)NC(=O)[C@@H](NC(=O)[C@H](Cc1c[nH]c2ccccc12)NC(=O)[C@H](CCCNC(=N)N)NC(=O)[C@H](CCCNC(=N)N)NC(=O)[C@@H](NC(=O)[C@H](CCCNC(=N)N)NC(=O)[C@H](CCCNC(=N)N)NC(=O)[C@@H](NC(=O)[C@H](Cc1c[nH]c2ccccc12)NC(=O)[C@H](CCCNC(=N)N)NC(=O)[C@@H](N)CCCNC(=N)N)C(C)C)C(C)C)C(C)C)C(C)C)C(C)C)C(C)C)C(C)C)C(=O)N[C@@H](CCCNC(=N)N)C(=O)N[C@@H](CCCNC(=N)N)C(=O)O — urinary creatinine (CD-1 mice; intravenous, 15 mg/kg, 6-24 h): 7 mg/dL
O=[N][Fe]1([N]=O)[S](CCO)[Fe]([N]=O)([N]=O)[S]1CCO — clearance (C57BL/6JNarl mouse, plasma; oral, dose not given): 0.29 L/h
CC(C)(F)CC(NC(c1ccc(-c2ccc(S(C)(=O)=O)cc2)cc1)C(F)(F)F)C(=O)NCC#N (centres unmarked) — GSH adduct formation (PBS; 100 µM, 23 h, pH 7.45, 37 °C, together with: GSH 5 mM): < 1%
CCCC[C@H](OC(C)=O)c1ccccc1C(=O)O — MRT(0-inf) (beagle dog, both sexes, whole blood; intravenous, 1.5 mg/kg, day 7): 2.8 h
CC(C)C[C@H](NC(=O)[C@H](CCCNC(=N)N)NC(=O)[C@H](Cc1ccccc1)NC(=O)[C@H](Cc1ccccc1)NC(=O)[C@@H](NC(=O)[C@H](COP(=O)(O)O)NC(=O)[C@@H](N)COP(=O)(O)O)[C@@H](C)O)C(=O)N[C@@H](Cc1ccccc1)C(=O)N[C@@H](CC(N)=O)C(=O)N[C@@H](CCCNC(=N)N)C(=O)N[C@@H](C)C(=O)N[C@@H](CCCCN)C(=O)N[C@@H](CCCNC(=N)N)C(=O)N[C@@H](Cc1c[nH]cn1)C(=O)N[C@@H](Cc1c[nH]cn1)C(=O)NCC(=O)N[C@@H](Cc1ccc(O)cc1)C(=O)N[C@@H](CCCCN)C(=O)N[C@@H](CCCNC(=N)N)C(=O)N[C@@H](CCCCN)C(=O)N[C@@H](Cc1ccccc1)C(=O)N[C@@H](Cc1c[nH]cn1)C(=O)O — peptide concentration (HPLC-UV; human saliva; 4 h, 37 °C, together with: initial 1 mg/mL): 0.539 mg/mL
CCC1CNC(CC)CN(C(C(=O)[O-])c2ccc(C(=O)[O-])cc2)C(CC)CN(CC(=O)[O-])C(CC)CN1.[Mn+2] (centres unmarked) — Mn uptake (ICP-MS; BALB/c mice, intestine; intravenous, 0.05 mmol/kg, 1440 min; baseline: injected dose): 8.25 ± 5.49%
CN1CCC[C@]1(C)/C=C/S(=O)(=O)NC(=O)Nc1c2c(cc3c1CCC3O)CCC2 (some centres unmarked) — AUC(0-tau) (human, plasma; oral, 12.5 mg twice daily of parent drug, day 1, metabolite of dosed drug): 63400 ng·h/mL
COc1cccc(OC)c1-c1cc(C(=O)NC2(C(=O)O)C3CC4CC(C3)CC2C4)nn1-c1ccc(C(=O)N(C)CCCN(C)CCCN(C)C(=O)[C@H](CCCCNC(=O)[C@H](CC(C)C)NC(=O)C2OC2C(=O)O)NC(=O)CN2CCN(CC(=O)[O-])CCN(CC(=O)[O-])CCN(CC(=O)[O-])CC2)cc1C(C)C.[177Lu+3] (mixture of isomers) — tumour-to-liver ratio (mouse, HT-29 xenograft; 168 h post injection, biodistribution; baseline: tumour over liver uptake): 4.98
Cc1c(Cc2ccc(Cl)c(OC(C)C(=O)O)c2)c2ccc(C(=O)NC(C)c3cccc(C(C)(C)C)c3)cc2n1C (centres unmarked) — half-life (metabolic stability; mouse, liver microsomes): 0.607 h
C=C(NC(=O)c1csc(-c2nc3c(cc2O)-c2nc(cs2)C(=O)NC(C(C)O)C(=O)NC(=C(C)OC)c2nc(cs2)C(=O)NC2c4nc(cs4)C(=O)NC(COC(=O)c4c5c6c(cccc6n4O)COC(=O)C(OC4CC(C)(O)C(N(C)C)C(C)O4)C2OC5)c2nc-3cs2)n1)C(N)=O (centres unmarked) — MRT(0-last) (cynomolgus monkey, both sexes, plasma; intravenous infusion, 1 mg/kg single dose): 0.96 h
CCCCN1C(=O)c2cccc3c(NCCCCN4CCOCC4)ccc(c23)C1=O — absorption maximum (toluene): 424 nm
COC(=O)[C@@]1(C(C)C)C=C(C(=O)Nc2cccc(C(=O)Nc3ccc(Nc4nccc(-c5cccnc5)n4)c(C)c3)c2)C(=O)CC1 — compound remaining (rat, plasma; 10 µM, 10 min): 103%
COc1cccc(OC)c1-c1cc(C(=O)NC2(C(=O)O)C3CC4CC(C3)CC2C4)nn1-c1ccc(C(=O)N(C)CCOCCN(C)C(=O)[C@H](CCCCNC(=O)[C@H](CC(C)C)NC(=O)C2OC2C(=O)O)NC(=O)CN2CCN(CC(=O)[O-])CCN(CC(=O)[O-])CCN(CC(=O)[O-])CC2)cc1C(C)C.[177Lu+3] (mixture of isomers) — tissue uptake (mouse, HT-29 xenograft, liver; 4 h post injection): 1.8 %ID/g
CN1CCC[C@]1(C)/C=C/S(=O)(=O)NC(=O)Nc1c2c(cc3c1CCC3)CCC2 — subjects with adverse event (refers to: blood triglycerides increased, not related; human; oral, 12.5 mg twice daily, 14 days, multiple ascending dose): 0%
Cc1cc(-c2ccc(C(=O)[C@@H]3CCCC[C@H]3C(=O)Nc3cnn4c3C(=O)NCC4)cc2)[nH]n1 — cumulative recovery of radioactivity (human, faeces; oral, 200 mg, 0-96 h; baseline: dose): 61.1%
Cc1ccc(OCC(=O)N(Cc2cccs2)c2ccn[nH]2)cc1 — remaining compound (rabbit plasma; 750 ng/mL, 24 h, 37 °C): 20.1%
CCCCN1C(=O)c2cccc3c(NCCCCCN4CCOCC4)ccc(c23)C1=O — absorption maximum (ethylene glycol): 448 nm
CC(C)(O)c1ncc([S@](N)(=O)=NC(=O)Nc2c3c(cc4c2CCC4)CCC3)s1 — share of subjects with TEAEs (refers to: all system organ classes; healthy human subjects; oral, 100 mg, fed): 83%
O=C(Nc1cnccc1-c1ccc([18F])cc1)c1ccnc(NC(=O)C2CC2)c1 — mean SUV (ex vivo gamma counting; GSK-3β transgenic mice, early-stage, adipose tissue; intravenous, 120 min, together with: tariquidar 15 mg/kg iv): 0.2
CC(C(=O)O)n1nc(Cn2cc3cc(OCC[18F])c(Cl)cc3n2)c2ccccc2c1=O (racemic) — tracer uptake (rat, bone; 1 h): 0.12 %ID/g
C/C(N)=N/C(=N\S(=O)(=O)c1ccc(C(F)(F)F)cc1)N1C[C@H](c2ccccc2)C(c2ccc(Cl)cc2)=N1 — half-life (C57BL/6 mouse, lung; intravenous, 10 mg/kg): 1.3 h
O=C(Nc1ccc(C(F)F)cc1)[C@H](CC1CCCCC1)Nc1nn2c(=O)ccnc2s1 — dose-normalized AUC (female BALB/c nude mice, plasma; oral, 10 mg/kg): 113 ng·h/mL
CC(=O)N([O-])CCCCCNC(=O)CCC(=O)N([O-])CCCCCNC(=O)CCC(=O)N([O-])CCCCCN.[89Zr+4] — intact compound (0.9 % NaCl saline; 3 days, pH 4.5, 37 °C): 98.3 ± 0.8%
CCn1c(=O)c(-c2cc(NC(=O)Nc3ccccc3)c(F)cc2Br)cc2cnc(N)cc21 — long-term stability accuracy (human plasma; 150 ng/mL, 1 months, -20 °C, low QC): -0.53%
CC[C@H](C)[C@H](NC(=O)[C@H](CCCCN)NC(=O)[C@H](CCC(=O)O)NC(=O)[C@H](CCCCN)NC(=O)[C@H](CC(C)C)NC(=O)[C@H](C)NC(=O)[C@H](C)NC(=O)[C@@H](NC(=O)[C@H](CCCCN)NC(=O)[C@@H]1CSCc2cccc(c2)CSC[C@H](NC(=O)[C@@H](NC(=O)[C@H](CCCCN)NC(C)=O)[C@@H](C)CC)C(=O)N[C@@H](C)C(=O)N[C@@H](CC(C)C)C(=O)N[C@@H](CCCCN)C(=O)N1)[C@@H](C)CC)C(=O)N[C@@H](C)C(=O)N[C@@H](C)C(=O)N[C@@H](CC(C)C)C(=O)N[C@@H](CCCCN)C(=O)N[C@@H](CCC(=O)O)C(=O)NCC(=O)N[C@@H](Cc1c[nH]c2ccccc12)C(N)=O — melting temperature (circular dichroism thermal melting; PBS; pH 7.4, single peptide 50 µM total): 28 °C
O=C(CN1CCN(CC(=O)NCc2ncccc2O)CCN(CC(=O)NCc2ncccc2O)CCN(CC(=O)NCc2ncccc2O)CC1)NCc1ncccc1O.[177Lu+3] — biodistribution (Sprague-Dawley rat, small intestine; intravenous, dose not given, 2 h): 0.228 ± 0.058 % injected dose/g
CCCC[C@H](NC(=O)CCCCCCCNC(=O)CN1CCN(CC(=O)O)CCN(CC(=O)O)CC1)C(=O)N[C@H]1CC(=O)NCCCC[C@@H](C(N)=O)NC(=O)[C@H](Cc2c[nH]c3ccccc23)NC(=O)[C@H](CCCNC(=N)N)NC(=O)[C@@H](Cc2ccccc2)NC(=O)[C@H](Cc2c[nH]cn2)NC1=O [fluorine-18 labelled] — urinary excretion (C57 mice B16/F10 melanoma, urine; intravenous, dose not given, 1 h, together with: NDP-MSH 10 µg blockade): 77 ± 3.84%
CN1CCC[C@]1(C)/C=C/S(=O)(=O)NC(=O)Nc1c2c(cc3c1CC(O)C3)CCC2 (some centres unmarked) — AUC(0-tau) (human, plasma; oral, 100 mg twice daily of parent drug, day 14, metabolite of dosed drug): 114000 ng·h/mL
CCCCN1C(=O)c2cccc3c(NCCCCCCN4CCOCC4)ccc(c23)C1=O — absorption maximum (DMF): 441 nm
Cc1nc(N)nc2c1C(=O)N[C@@H](c1ccc(F)cc1-c1cccc(OCC[18F])n1)C2 — SUV (ex vivo biodistribution; C57BL/6 mice, brain; intravenous, 1 MBq, 30 min): 0.36 ± 0.01
CCCC[C@H](NC(=O)CNC(=O)CNC(=O)[C@H](CCCCNC(=O)[C@H](CC(=O)O)NC(=O)C(C)c1ccc(CC(C)C)cc1)NC(=O)CN1CCN(CC(=O)O)CCN(CC(=O)O)CCN(CC(=O)O)CC1)C(=O)N[C@H]1CC(=O)NCCCC[C@@H](C(N)=O)NC(=O)[C@H](Cc2c[nH]c3ccccc23)NC(=O)[C@H](CCCNC(=N)N)NC(=O)[C@@H](Cc2ccccc2)NC(=O)[C@H](Cc2c[nH]cn2)NC1=O (some centres unmarked) [lutetium-177 labelled] — tumour-to-tissue ratio (C57 mice, tumour; intravenous, 0.037 MBq, 4 h; baseline: kidney): 1.77
O=C(Nc1cnccc1-c1ccc([18F])nc1)c1ccnc(NC(=O)C2CC2)c1 — median SUV (PET imaging; FVB/NJ mice, both sexes, liver; intravenous, 10 min, together with: tariquidar 15 mg/kg iv, ≥2 h before): 7.94
CCCCN1C(=O)c2cccc3c(NCCCN4CCOCC4)ccc(c23)C1=O — absorption maximum (methanol): 441 nm
C[N+](C)(CCOCCOCCOCCNC(=S)Nc1ccc(C[C@H]2CN(CC(=O)[O-])CCN(CC(=O)[O-])CCN2CC(=O)[O-])cc1)C[c-]1cccc1.[64Cu+2].[Fe+2].c1cc[cH-]c1 — tumour uptake (nude mice, BxPC-3 xenograft; 4 h, pretargeted): 1.7 ± 1.2 %ID/g
CCCCN1C(=O)c2cccc3c(NCCCCCCCCN4CCOCC4)ccc(c23)C1=O — absorption maximum (DMSO): 444 nm
[2H]C1([2H])CC[C@@H](C[C@@H](C#N)NC(=O)[C@@H]2[C@@H]3[C@H](CN2C(=O)[C@@H](NC(=O)C(F)(F)F)C(C)(C)C)C3(C)C)C(=O)N1 — intrinsic clearance (mouse liver microsomes; scaled to liver): 539 mL/min/kg

For quick reference, copied from above:
O=C(Nc1cnccc1-c1ccc([18F])nc1)c1ccnc(NC(=O)C2CC2)c1 — median SUV (PET imaging; FVB/NJ mice, both sexes, liver; intravenous, 10 min, together with: tariquidar 15 mg/kg iv, ≥2 h before): 7.94
CCCCN1C(=O)c2cccc3c(NCCCN4CCOCC4)ccc(c23)C1=O — absorption maximum (methanol): 441 nm
C[N+](C)(CCOCCOCCOCCNC(=S)Nc1ccc(C[C@H]2CN(CC(=O)[O-])CCN(CC(=O)[O-])CCN2CC(=O)[O-])cc1)C[c-]1cccc1.[64Cu+2].[Fe+2].c1cc[cH-]c1 — tumour uptake (nude mice, BxPC-3 xenograft; 4 h, pretargeted): 1.7 ± 1.2 %ID/g
CCCCN1C(=O)c2cccc3c(NCCCCCCCCN4CCOCC4)ccc(c23)C1=O — absorption maximum (DMSO): 444 nm
